Experimental data from different studies.
Numbered parts are unrelated; each lists some results of a single study.

Sample 1 — technique: protein binding microarray; form: double-stranded DNA, one strand shown; sample: in vitro; tested at: not given; baseline: not given; direction: higher = stronger binding
Target: Histone acetyltransferase KAT6A, both winged helices, GST fusion (KAT6A, Homo sapiens, UniProt Q92794, residues 1-181)
Notes: 8-mer, flanks averaged, mean of 2 arrays, mostly near background
Residues (chain): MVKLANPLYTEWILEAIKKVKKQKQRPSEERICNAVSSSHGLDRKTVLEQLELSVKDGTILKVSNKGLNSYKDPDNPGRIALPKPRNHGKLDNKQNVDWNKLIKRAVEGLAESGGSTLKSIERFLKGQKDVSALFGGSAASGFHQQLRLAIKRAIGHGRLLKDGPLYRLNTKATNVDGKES
Sequence | E-score
ACGGGAGA | 0.18
ACTCTCGC | -0.0172
ATTGAAAT | -0.0425
CACGTCTC | 0.0736

Sample 2 — technique: universal PBM; form: double-stranded DNA, one strand shown; sample: in vitro; tested at: not given; direction: higher = stronger binding
Target: Sal-like protein 4, full length isoform B (SALL4, Homo sapiens, UniProt Q9UJQ4-2, residues 1-616)
Notes: 8-mer, flanks averaged, mean of replicates
Target sequence (chain): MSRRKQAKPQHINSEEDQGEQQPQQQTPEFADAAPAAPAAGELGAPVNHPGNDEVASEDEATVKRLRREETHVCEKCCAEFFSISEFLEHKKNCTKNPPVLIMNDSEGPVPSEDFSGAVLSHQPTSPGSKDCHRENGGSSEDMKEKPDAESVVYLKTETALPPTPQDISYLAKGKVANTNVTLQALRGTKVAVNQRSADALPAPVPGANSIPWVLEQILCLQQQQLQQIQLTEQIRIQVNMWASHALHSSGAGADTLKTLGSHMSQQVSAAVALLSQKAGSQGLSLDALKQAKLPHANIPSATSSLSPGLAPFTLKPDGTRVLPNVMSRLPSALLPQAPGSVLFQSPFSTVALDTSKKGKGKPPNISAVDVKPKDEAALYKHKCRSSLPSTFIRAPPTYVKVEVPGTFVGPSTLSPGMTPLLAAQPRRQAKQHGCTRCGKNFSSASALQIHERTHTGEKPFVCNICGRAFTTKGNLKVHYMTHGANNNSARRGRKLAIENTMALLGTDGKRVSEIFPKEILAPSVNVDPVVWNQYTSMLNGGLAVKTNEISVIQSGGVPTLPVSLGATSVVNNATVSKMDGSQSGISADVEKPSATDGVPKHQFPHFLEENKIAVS
Sequence | E-score
ACCGTGGG | -0.348
GTGACATA | 0.209
CGAGTCTC | -0.283
CGCCTCCG | -0.268

Sample 3 — technique: protein-binding microarray; form: double-stranded DNA, one strand shown; sample: in vitro; tested at: 940 nM top; notes: 60-bp whole probe; with: salmon DNA 0.4 mg/ml; baseline: random background probes; direction: higher = stronger binding; constant ends, left off below: GCCTAGCAC … GTCTTGATTCGCTTGACGCTGCTG
Target: Interferon regulatory factor 5, full length, phosphomimetic (IRF5, Homo sapiens, UniProt Q13568-2, residues 1-514, S451D/S453D/S456D/S462D)
Sequence | fitted relative affinity [z-score]
GACGATTCCAGTTTGGAGACGTGCTAG | 0.176
GACGGTATCGGTCTCGGGACGTGCTAG | 8.06
TTAGATTCCAGTTTCGATCAGTGCTAG | 8.33
TCAGTCACCCATCTCAAACTGTGCTAG | 0.313
GACGGACTGGGGAGTGGGGACGTGCTA | -0.103

Other studies, line by line
Substance | target | assay | system | conditions | how to read | quantity | value
PhoQ, residues 284 288 289 292 302 303 SSTLSG | PhoP, residues 12 14 15 18 19 LWHCS (Escherichia coli, UniProt P23836) | Sort-seq, refers to: YFP reporter | E. coli | PhoQ-PhoP variant library, with: 10 µM Mg2+ | baseline: high Mg2+ state, higher = stronger signaling | fold induction | 14.2

Excerpt of the above (sample 3):
Sequence | fitted relative affinity [z-score]
GACGGTATCGGTCTCGGGACGTGCTAG | 8.06
